Assay results of several laboratories.
Compare with care: the assays were run in different laboratories. Numbers after ± are the reported error.
Cell line: U-87 MG

Structure (SMILES) | test | setting | how to read | quantity | result
CCCCCCCCCCCCCCOc1c(O)cc(C(=O)O[C@@H]2Cc3c(O)cc(O)cc3O[C@@H]2c2cc(O)c(O)c(O)c2)cc1O | Western blot, refers to: BCL-XL | 50 µM, 24 h | baseline: untreated | protein level | decreased
CC1(C)CC(=O)C(C2C([N+](=O)[O-])=C3NCCN3c3nc4ccccc4cc32)=C(O)C1 (centres unmarked) | cell growth or viability, MTT | 48 h | – | IC50 | 10.8 µM
COc1c(O)c(-c2c(O)c(OC)c(OC)c3c2ccc2cc(O)ccc23)c2c(c1OC)-c1ccc(O)cc1CC2 | cell viability, CCK-8 | 24 h | – | IC50 | 17.1 ± 3.72 µM
CN(C)c1ccc(/C=C/C(=O)c2ccc(S(=O)(=O)N3CCCCCC3)cc2)cc1[N+](=O)[O-] | – | concentration not given, non-toxic concentrations | – | sphere formation | no inhibition
CCCCCCCCCCCCOc1c(O)cc(C(=O)OC2Cc3c(O)cc(O)cc3OC2c2cc(O)c(O)c(O)c2)cc1O (centres unmarked) | Western blot, refers to: phospho-mTOR | 50 µM, 24 h | baseline: untreated | phosphorylation level | decreased
CN1CCc2cc(Nc3ncc(C(F)(F)F)c(NCc4cc[nH]n4)n3)ccc2C1 | cell growth or viability, MTT | 72 h | – | IC50 | 4.02 µM
CCCCCCCCOc1c(O)cc(C(=O)OC2Cc3c(O)cc(O)cc3OC2c2cc(O)c(O)c(O)c2)cc1O (centres unmarked) | cell viability, CCK-8 | 24 h | – | IC50 | 40.79 ± 0.13 µM
COc1cc(-c2cc(=O)c3c(O)cc(OC4OC(COC5OC(C)C(O)C(O)C5O)C(O)C(O)C4O)cc3o2)ccc1O (centres unmarked) | cell growth or viability, resazurin | 72 h | – | IC50 | 42.5 µM
CC1(C)C(/C=C/C2=C(Cl)C(=C/C=C3/N(CCCCCC(=O)O)c4ccccc4C3(C)C)/C[N+](C)(C)C2)=[N+](CCCCCC(=O)O)c2ccccc21 | organelle co-localization, confocal imaging | 20 µM, 24 h, golgi | – | Pearson's correlation coefficient | 0.54
Cc1ccc(C(C)C)cc1.[Cl-].[Cl][Ru+].[Ru+].c1ccc(-c2cn(CCCCOc3ccccc3-c3nc4ccccc4s3)nn2)nc1 | MTT | – | baseline: IC50 HEK293 over IC50 U-87 MG | selectivity ratio | 1.35
CC1OC(OCC2OC(Oc3cc(O)c4c(=O)cc(-c5ccc(O)c(O)c5)oc4c3)C(O)C(O)C2O)C(O)C(O)C1O (centres unmarked) | cell growth or viability, resazurin | 72 h | – | IC50 | 46.7 µM
COc1c(Oc2c(O)c(OC)c(OC)c3c2ccc2cc(O)ccc23)cc2c(c1OC)-c1ccc(O)cc1CC2 | cell growth or viability, CCK-8 | 100 µM, 24 h | – | viability | 8.38%
CCCCCCOc1c(O)cc(C(=O)OC2Cc3c(O)cc(O)cc3OC2c2cc(O)c(O)c(O)c2)cc1O (centres unmarked) | cell viability, CCK-8 | 24 h | – | IC50 | 63.36 ± 0.05 µM
CC(=O)O[C@H]1C(=O)[C@]2(C)[C@@H](OC(=O)[C@H](N)CSC3CC(=O)N(CCC(=O)Nc4ccc(-c5ccc(/N=N/c6ccc7c(S(=O)(=O)O)cc(S(=O)(=O)O)c(N)c7c6O)c(C)c5)cc4C)C3=O)C[C@H]3OC[C@@]3(OC(C)=O)[C@H]2[C@H](OC(=O)c2ccccc2)[C@]2(O)C[C@H](OC(=O)[C@H](O)[C@@H](NC(=O)c3ccccc3)c3ccccc3)C(C)=C1C2(C)C (some centres unmarked) | annexin V/PI flow cytometry | concentration not given, 24 h | – | early apoptotic cells | 36.8%
